Earlier results as cited in several papers.
Each line is one published result; not all experiments were run side by side. ± marks the error that the study gave.

The Abeta42 reduction of CSc1ccc(/C=C2/C(C)=C(CC(=O)O)c3cc(F)ccc32)cc1 is reported as ≥ 50% (cells overexpressing human APP; 80 to 100 µM).
The GI50 of O=C(OCC12CC3CC(CC(C3)C1)C2)c1ccc(NCc2cc(O)ccc2O)cc1 is reported as 1250 nM (NCI-60 panel; cell growth).
For `PACAP-27`, intracellular cAMP read “increased” (NCI-H838; NG).
The IC50 of Nc1nc2[nH]c(CCCCCCc3ccc(C(=O)N[C@@H](CCC(=O)O)C(=O)O)cc3)cc2c(=O)[nH]1 is reported as 198 nM (CHO D4 cells expressing human FR beta; cell growth).
Under “Km or Ki”, CO[C@@H]1[C@@H]2OP(=O)(O)OC[C@H]2O[C@H]1n1c(Sc2ccc(Cl)cc2)nc2c(N)ncnc21 is recorded as 8570 nM (PDE1B; cyclic nucleotide hydrolysis, substrate or inhibitor, isothermal titration calorimetry).
For Cc1ccc(C(=O)Nc2ccc(CN3CCN(C)CC3)c(C(F)(F)F)c2)cc1C#Cc1cnc2cccnn12, “concentration suppressing resistance” read 40 nM (Ba/F3 expressing BCR-ABL; emergence of secondary mutations incl. T315I).
With CC(=O)c1cccc(N[C@H]2[C@H](N)[C@@](NC(=O)N(C)C)([C@H](C)O)[C@@](C)(O)[C@@]2(O)COC(=O)c2c(C)cccc2O)c1 the GI50 was < 10 nM (DU-145 (prostate cancer); cell growth; NCI screen data).
The EC50 of C[C@]12CC[C@@H]3c4ccc(O)cc4CC[C@H]3[C@@H]1CC[C@@H]2OC(=O)c1ccccc1 is reported as 591 nM (HT-22; cell protection; added: iodoacetic acid 20 µM).
For Cl.c1csc(CNc2cc[nH]n2)c1, “mitotic index reduction” read ≥ 50% (human peripheral blood lymphocytes; 2160 µg/mL, 4 + 16 h, range-finding, with or without S9; reference: vehicle).
Cc1c(O)c(C23CC4CC(CC(C4)C2)C3)cc2c1CC[C@@H]1[C@@H]2CC[C@]2(C)C(=O)CC[C@@H]12 gave an EC50 of 280 nM (HT-22; cell protection; added: iodoacetic acid 40 µM).
CCCCCCCCCCCCCC(=S)NCCCCC(NC(=O)OCc1ccccc1)C(=O)Nc1ccccc1 (stereo not drawn) gave a GI50 of 27000 ± 8000 nM (HCT-116 overexpressing SIRT2; anchorage-independent growth).
C[C@@]12CC[C@H]3c4ccc(O)cc4CC[C@@H]3[C@H]1CC[C@H]2O (single isomer, unassigned) gave an EC50 of 35000 nM (HT-22; cell protection; added: iodoacetic acid 40 µM).
With `PDGF-BB, human recombinant` the doubling time was 1 to 2 days (Schwann cells; added: 5 to 10 µM forskolin).
For O=C(Nc1ncnc2c1ncn2[C@@H]1O[C@@H]2COP(=O)(O)OC2C1O)c1ccccc1 (stereo in doubt), “Km or Ki” read 240000 nM (PDE2A; cyclic nucleotide hydrolysis, substrate or inhibitor, isothermal titration calorimetry).
Cc1ccc([N+](=O)[O-])cc1S(=O)(=O)N(C)/N=C/c1cnc2ccc(Br)cn12 gave an IC50 of 2300 nM (ATM; kinase activity, inhibitor; added: 10 µM ATP).
For COc1ccc(N(C)c2nc(C)nc3[nH]ccc23)cc1, the IC50 was 270 ± 26 nM (HeLa; cell growth).
O=C1c2cccc3c2[C@H](CCC3)CN1[C@@H]1CN2CCC1CC2 gave a CL/F of 10.8 L/h (patients, plasma; oral, dose not given, netupitant-palonosetron combination, added: etoposide 35 to 100 mg/m^2 IV).
With C[C@]12CC[C@@H]3c4ccc(O)cc4CC[C@H]3[C@@H]1CC1(CCCC1)C2=O the EC50 was 6 nM (HT-22; cell protection; added: iodoacetic acid 20 µM).
For Oc1cccc(-c2nc(N3CCOCC3)c3oc4ncccc4c3n2)c1, the IC50 was > 100000 nM (phosphatidylinositol 5-phosphate 4-kinase type II beta; enzyme activity, inhibitor; added: 10 µM ATP).
C[C@]12CCC[C@@H]1[C@H]1CCc3cc(O)ccc3[C@@H]1CC2 (single isomer, unassigned) has an EC50 of 191 nM (HT-22; cell protection; added: iodoacetic acid 20 µM).
For `GVVIA`, the viability was 83 ± 3% (differentiated PC-12; Aβ42-induced toxicity, inhibitor, MTT; peptide; 10-fold excess over Aβ42, 15 h, added: Aβ42 5 µM).

For quick reference, copied from above:
The EC50 of C[C@]12CC[C@@H]3c4ccc(O)cc4CC[C@H]3[C@@H]1CC[C@@H]2OC(=O)c1ccccc1 is reported as 591 nM (HT-22; cell protection; added: iodoacetic acid 20 µM).
